Measured values gathered from unrelated publications.
Each line is one published result; not all experiments were run side by side. ± marks the error that the study gave. Where no end group is shown, it is not given here. No end group written: not given here. [ ]: non-standard residue; d: D form. *: point of attachment.
B1: MYH7 839-968 (Homo sapiens, UniProt P12883); sequence looked up; chain LLKSAEREKEMASMKEEFTRLKEALEKSEARRKELEEKMVSLLQEKNDLQLQVQAEQDNLADAEERCDQLIKNKIQLEAKVKEMNERLEDEEEMNAELTAKKRKLEDECSELKRDIDDLELTLAKVEKEK
B2: metQ mature N229A (Escherichia coli, UniProt P28635); fluorescein label Cys23; sequence looked up; chain CGQDEKDPNHIKVGVIVGAEQQVAEVAQKVAKDKYGLDVELVTFNDYVLPNEALSKGDIDANAFQHKPYLDQQLKDRGYKLVAVGNTFVYPIAGYSKKIKSLDELQDGSQVAVPNDPTNLGRSLLLLQKVGLIKLKDGVGLLPTVLDVVENPKNLKIVELEAPQLPRSLDDAQIALAVINTTYASQIGLTPAKDGIFVEDKESPYVALIVTREDNKDAENVKKFVQAYQSDEVYEAANKVFNGGAVKGW
B3: rpn10 (Schizosaccharomyces pombe, UniProt O94444); sequence looked up; chain MVLEATMILIDNSEWMINGDYIPTRFEAQKDTVHMIFNQKINDNPENMCGLMTIGDNSPQVLSTLTRDYGKFLSAMHDLPVRGNAKFGDGIQIAQLALKHRENKIQRQRIVAFVGSPIVEDEKNLIRLAKRMKKNNVAIDIIHIGELQNESALQHFIDAANSSDSCHLVSIPPSPQLLSDLVNQSPIGQGVVASQNQFEYGVDPNLDVELALALELSMAEERARQEVAAQKSSEETEDKKMQE
B4: UGT1A9 (Homo sapiens, UniProt O60656); chain GKLLVVPMDGSHWFTMRSVVEKLILRGHEVVVVMPEVSWQLGRSLNCTVKTYSTSYTLEDLDREFKAFAHAQWKAQVRSIYSLLMGSYNDIFDLFFSNCRSLFKDKKLVEYLKESSFDAVFLDPFDNCGLIVAKYFSLPSVVFARGILCHYLEEGAQCPAPLSYVPRILLGFSDAMTFKERVRNHIMHLEEHLLCHRFFKNALEIASEILQTPVTEYDLYSHTSIWLLRTDFVLDYPKPVMPNMIFIGGINCHQGKPLPMEFEAYINASGEHGIVVFSLGSMVSEIPEKKAMAIADALGKIPQTVLWRYTGTRPSNLANNTILVKWLPQNDLLGHPMTRAFITHAGSHGVYESICNGVPMVMMPLFGDQMDNAKRMETKGAGVTLNVLEMTSEDLENALKAVINDKSYKENIMRLSSLHKDRPVEPLDLAVFWVEFVMRHKGAPHLRPAAHDLTWYQYHSLDVIGFLLAVVLTVAFITFKCCAYGYRKCLGKKGRVKKAHKSKTH
B5: VCL head domain 1; chain MPVFHTRTIESILEPVAQQISHLVIMHEEGEVDGKAIPDLTAPVSAVQAAVSNLVRVGKETVQTTEDQILKRDMPPAFIKVENACTKLVRAAQMLQADPYSVPARDYLIDGSRGILSGTSDLLLTFDEAEVRKIIRVCKGILEYLTVAEVVETMEDLVTYTKNLGPGMTKMAKMIDERQQELTHQEHRVMLVNSMNTVKELLPVLISAMKIFVTTKNTKSQGIEEALKNRNFTVEKMSAEINEIIRVLQLTSWDEDAW
B6: Fermt2 F0 1-97 (Mus musculus, UniProt Q8CIB5); Atto520 label; sequence looked up; chain MALDGIRMPDGCYADGTWELSVHVTDLNRDVTLRVTGEVHIGGVMLKLVEKLDVKKDWSDHALWWEKKRTWLLKTHWTLDKCGIQADAKLQFTPQHK
B7: Reln 1948-2662 (Mus musculus, UniProt Q60841); chain DGNNLNNPVLLLDTFDFGPREDNWFFYPGGNIGLYCPYSSKGAPEEDSAMVFVSNEVGEHSITTRDLSVNENTIIQFEINVGCSTDSSSADPVRLEFSRDFGATWHLLLPLCYHSSSLVSSLCSTEHHPSSTYYAGTTQGWRREVVHFGKLHLCGSVRFRWYQGFYPAGSQPVTWAIDNVYIGPQCEEMCYGHGSCINGTKCICDPGYSGPTCKISTKNPDFLKDDFEGQLESDRFLLMSGGKPSRKCGILSSGNNLFFNEDGLRMLVTRDLDLSHARFVQFFMRLGCGKGVPDPRSQPVLLQYSLNGGLSWSLLQEFLFSNSSNVGRYIALEMPLKARSGSTRLRWWQPSENGHFYSPWVIDQILIGGNISGNTVLEDDFSTLDSRKWLLHPGGTKMPVCGSTGDALVFIEKASTRYVVTTDIAVNEDSFLQIDFAASCSVTDSCYAIELEYSVDLGLSWHPLVRDCLPTNVECSRYHLQRILVSDTFNKWTRITLPLPSYTRSQATRFRWHQPAPFDKQQTWAIDNVYIGDGCLDMCSGHGRCVQGSCVCDEQWGGLYCDEPETSLPTQLKDNFNRAPSNQNWLTVSGGKLSTVCGAVASGLALHFSGGCSRLLVTVDLNLTNAEFIQFYFMYGCLITPSNRNQGVLLEYSVNGGITWNLLMEIFYDQYSKPGFVNILLPPDAKEIATRFRWWQPRHDGLDQNDWAIDNVLIS
B8: LAIR1 extracellular domain 22-165 (Homo sapiens, UniProt Q6GTX8); sequence looked up; chain QEEDLPRPSISAEPGTVIPLGSHVTFVCRGPVGVQTFRLERDSRSTYNDTEDVSQASPSESEARFRIDSVREGNAGLYRCIYYKPPKWSEQSDYLELLVKESSGGPDSPDTEPGSSAGPTQRPSDNSHNEHAPASQGLKAEHLY
B9: BNR1 1288-1375 (Saccharomyces cerevisiae, UniProt P40450); sequence looked up; chain LDMRTSSNKKSNGSDENDGEKVNRDAVDLLISKLREVKKDPEPLRRRKSTKLNEIAINVHEGDVKTRKDEDHVLLERTHAMLNDIQNI
B10: HSPB8 (Homo sapiens, UniProt Q9UJY1); sequence looked up; chain MADGQMPFSCHYPSRLRRDPFRDSPLSSRLLDDGFGMDPFPDDLTASWPDWALPRLSSAWPGTLRSGMVPRGPTATARFGVPAEGRTPPPFPGEPWKVCVNVHSFKPEELMVKTKDGYVEVSGKHEEKQQEGGIVSKNFTKKIQLPAEVDPVTVFASLSPEGLLIIEAPQVPPYSTFGESSFNNELPQDSQEVTCT
Sequence of UniProt P26447 (whole entry, looked up): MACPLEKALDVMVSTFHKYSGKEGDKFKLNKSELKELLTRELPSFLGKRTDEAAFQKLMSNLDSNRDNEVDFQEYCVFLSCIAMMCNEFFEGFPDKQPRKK
Sequence of UniProt O15392 (whole entry, looked up): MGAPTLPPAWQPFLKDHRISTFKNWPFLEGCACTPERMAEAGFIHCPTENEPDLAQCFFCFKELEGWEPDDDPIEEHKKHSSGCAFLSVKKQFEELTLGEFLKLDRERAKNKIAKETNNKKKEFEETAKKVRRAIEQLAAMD
Sequence of UniProt O95817 (whole entry, looked up): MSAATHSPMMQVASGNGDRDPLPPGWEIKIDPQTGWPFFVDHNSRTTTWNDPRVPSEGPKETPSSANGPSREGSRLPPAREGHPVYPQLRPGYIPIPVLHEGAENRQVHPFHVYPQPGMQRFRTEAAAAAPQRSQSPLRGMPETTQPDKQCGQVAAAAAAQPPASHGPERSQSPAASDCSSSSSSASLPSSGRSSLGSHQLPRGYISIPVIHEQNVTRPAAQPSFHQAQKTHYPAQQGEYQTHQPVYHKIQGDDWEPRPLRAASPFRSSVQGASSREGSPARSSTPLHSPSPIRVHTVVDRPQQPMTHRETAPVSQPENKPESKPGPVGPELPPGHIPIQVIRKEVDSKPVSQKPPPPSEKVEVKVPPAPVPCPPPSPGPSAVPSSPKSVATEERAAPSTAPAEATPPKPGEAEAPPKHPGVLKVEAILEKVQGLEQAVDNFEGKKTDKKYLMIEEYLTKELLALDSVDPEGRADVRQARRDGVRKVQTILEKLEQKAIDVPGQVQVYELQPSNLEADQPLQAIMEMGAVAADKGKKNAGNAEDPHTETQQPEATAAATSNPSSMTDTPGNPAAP
Sequence of UniProt A0A1D5PXA5 (whole entry, looked up): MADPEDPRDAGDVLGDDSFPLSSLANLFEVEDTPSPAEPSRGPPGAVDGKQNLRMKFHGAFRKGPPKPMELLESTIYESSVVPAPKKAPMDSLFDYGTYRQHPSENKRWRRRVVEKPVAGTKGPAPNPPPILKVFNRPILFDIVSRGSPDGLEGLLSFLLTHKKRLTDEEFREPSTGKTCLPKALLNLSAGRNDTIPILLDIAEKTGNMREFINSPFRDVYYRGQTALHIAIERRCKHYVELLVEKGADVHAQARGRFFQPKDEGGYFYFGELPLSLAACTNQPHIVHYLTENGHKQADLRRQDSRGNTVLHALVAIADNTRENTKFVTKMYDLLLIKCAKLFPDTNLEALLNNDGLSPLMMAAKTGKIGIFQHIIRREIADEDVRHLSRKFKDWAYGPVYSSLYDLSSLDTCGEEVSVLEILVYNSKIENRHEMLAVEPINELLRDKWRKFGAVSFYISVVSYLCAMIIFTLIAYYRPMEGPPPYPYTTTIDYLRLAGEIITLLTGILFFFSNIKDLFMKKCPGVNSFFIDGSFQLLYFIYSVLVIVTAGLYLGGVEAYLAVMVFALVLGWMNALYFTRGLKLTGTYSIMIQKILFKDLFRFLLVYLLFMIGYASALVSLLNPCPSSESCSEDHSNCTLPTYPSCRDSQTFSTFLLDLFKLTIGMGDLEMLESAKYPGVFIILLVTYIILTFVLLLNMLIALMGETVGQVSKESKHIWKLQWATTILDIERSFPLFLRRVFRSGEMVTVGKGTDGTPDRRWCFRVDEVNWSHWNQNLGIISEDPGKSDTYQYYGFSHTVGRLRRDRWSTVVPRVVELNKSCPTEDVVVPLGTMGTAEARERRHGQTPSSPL
Sequence of UniProt P01127 (whole entry, looked up): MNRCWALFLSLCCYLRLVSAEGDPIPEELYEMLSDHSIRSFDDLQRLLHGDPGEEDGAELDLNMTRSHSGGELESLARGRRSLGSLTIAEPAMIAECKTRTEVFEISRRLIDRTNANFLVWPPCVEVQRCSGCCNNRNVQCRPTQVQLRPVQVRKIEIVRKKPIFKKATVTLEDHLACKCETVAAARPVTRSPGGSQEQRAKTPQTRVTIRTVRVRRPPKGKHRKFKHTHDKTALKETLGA
Sequence of UniProt Q9BXS5 (whole entry, looked up): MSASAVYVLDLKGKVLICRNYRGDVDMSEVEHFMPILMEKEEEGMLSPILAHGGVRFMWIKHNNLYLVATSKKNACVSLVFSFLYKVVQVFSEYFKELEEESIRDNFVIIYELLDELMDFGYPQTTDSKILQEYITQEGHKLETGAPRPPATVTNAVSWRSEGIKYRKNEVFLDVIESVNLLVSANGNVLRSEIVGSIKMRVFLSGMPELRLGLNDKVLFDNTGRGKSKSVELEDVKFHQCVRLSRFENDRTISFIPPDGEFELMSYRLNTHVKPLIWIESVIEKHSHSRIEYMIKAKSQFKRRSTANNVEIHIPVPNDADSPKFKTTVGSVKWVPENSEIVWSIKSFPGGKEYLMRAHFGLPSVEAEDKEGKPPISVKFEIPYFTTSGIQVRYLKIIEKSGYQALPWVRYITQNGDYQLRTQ
Sequence of UniProt P50524 (whole entry, unmodified, looked up): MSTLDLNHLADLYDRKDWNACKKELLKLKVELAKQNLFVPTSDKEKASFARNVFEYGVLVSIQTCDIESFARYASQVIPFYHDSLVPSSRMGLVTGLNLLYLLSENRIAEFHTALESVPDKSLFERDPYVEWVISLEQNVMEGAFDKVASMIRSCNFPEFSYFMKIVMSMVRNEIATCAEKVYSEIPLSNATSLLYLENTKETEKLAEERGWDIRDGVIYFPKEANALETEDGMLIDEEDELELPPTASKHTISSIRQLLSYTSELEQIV
Sequence of UniProt Q65CL1 (whole entry, looked up): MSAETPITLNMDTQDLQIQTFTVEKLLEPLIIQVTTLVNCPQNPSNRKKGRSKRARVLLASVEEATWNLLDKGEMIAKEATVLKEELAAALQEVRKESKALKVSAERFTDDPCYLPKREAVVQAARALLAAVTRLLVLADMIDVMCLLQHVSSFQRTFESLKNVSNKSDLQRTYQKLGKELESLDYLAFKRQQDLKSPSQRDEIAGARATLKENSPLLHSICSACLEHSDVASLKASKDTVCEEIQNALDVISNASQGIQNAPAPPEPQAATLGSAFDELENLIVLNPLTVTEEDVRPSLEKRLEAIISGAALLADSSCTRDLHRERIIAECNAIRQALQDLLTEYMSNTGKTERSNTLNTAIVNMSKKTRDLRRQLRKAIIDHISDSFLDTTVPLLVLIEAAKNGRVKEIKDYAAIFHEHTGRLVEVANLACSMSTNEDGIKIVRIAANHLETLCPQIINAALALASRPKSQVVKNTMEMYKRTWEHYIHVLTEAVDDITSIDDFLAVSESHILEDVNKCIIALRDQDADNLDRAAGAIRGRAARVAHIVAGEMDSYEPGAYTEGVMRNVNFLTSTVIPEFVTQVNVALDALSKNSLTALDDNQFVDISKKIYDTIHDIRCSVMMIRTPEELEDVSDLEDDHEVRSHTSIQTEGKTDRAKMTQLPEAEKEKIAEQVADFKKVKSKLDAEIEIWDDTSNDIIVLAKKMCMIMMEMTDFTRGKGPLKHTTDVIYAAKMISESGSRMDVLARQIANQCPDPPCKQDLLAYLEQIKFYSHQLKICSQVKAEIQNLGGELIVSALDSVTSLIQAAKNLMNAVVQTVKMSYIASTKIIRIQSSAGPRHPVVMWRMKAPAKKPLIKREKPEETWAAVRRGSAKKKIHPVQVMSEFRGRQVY
Sequence of UniProt O13154 (whole entry, looked up): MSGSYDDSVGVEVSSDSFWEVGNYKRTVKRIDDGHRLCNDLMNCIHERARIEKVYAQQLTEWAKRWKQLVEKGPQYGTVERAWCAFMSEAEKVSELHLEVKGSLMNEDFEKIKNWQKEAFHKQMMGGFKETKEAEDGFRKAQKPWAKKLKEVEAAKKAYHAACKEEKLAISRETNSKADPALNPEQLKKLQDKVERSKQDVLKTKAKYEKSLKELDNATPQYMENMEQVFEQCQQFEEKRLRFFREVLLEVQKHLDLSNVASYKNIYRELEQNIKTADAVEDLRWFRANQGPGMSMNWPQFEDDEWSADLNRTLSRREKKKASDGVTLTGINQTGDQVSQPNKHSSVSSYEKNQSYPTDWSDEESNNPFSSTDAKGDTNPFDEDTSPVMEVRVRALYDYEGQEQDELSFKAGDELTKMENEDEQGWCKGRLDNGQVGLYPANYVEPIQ
Sequence of UniProt Q9BYN0 (whole entry, looked up): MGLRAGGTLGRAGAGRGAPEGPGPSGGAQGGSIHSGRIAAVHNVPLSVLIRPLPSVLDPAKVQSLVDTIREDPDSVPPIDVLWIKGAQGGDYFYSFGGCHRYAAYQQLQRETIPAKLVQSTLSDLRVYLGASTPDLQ
Sequence of UniProt Q8NHJ6 (whole entry, looked up): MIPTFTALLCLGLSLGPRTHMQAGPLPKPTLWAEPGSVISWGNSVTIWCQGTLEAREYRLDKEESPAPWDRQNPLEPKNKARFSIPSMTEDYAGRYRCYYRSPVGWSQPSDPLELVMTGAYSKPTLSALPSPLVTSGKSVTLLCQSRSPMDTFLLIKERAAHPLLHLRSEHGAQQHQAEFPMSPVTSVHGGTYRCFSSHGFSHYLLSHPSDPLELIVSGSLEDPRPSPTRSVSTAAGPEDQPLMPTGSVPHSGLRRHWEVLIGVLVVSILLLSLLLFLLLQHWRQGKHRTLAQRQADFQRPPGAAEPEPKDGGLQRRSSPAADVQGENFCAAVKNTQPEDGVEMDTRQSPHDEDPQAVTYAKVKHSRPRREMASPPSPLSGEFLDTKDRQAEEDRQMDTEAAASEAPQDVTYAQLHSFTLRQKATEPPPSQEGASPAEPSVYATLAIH

| Molecule | tested on | assay | system | setting | measurement | result |
| --- | --- | --- | --- | --- | --- | --- |
| TDRD3 fragment (Homo sapiens) | histone H3, asymmetric dimethyl R17 | fluorescence polarisation |  |  | Kd | 50000 nM |
| BACH1 fragment (Homo sapiens) | FBXO22/SKP1 full length FBXO22 (Homo sapiens) | BLI |  | 30 °C | Kd | 90 nM |
| {5‑TAMRA-Ahx}-NLSELDRLLDELN (PXN residues 141-153 L10D; N-terminal TAMRA, aminohexanoyl linker; 5‑TAMRA = CN(C)c1ccc2c(-c3ccc(C(=O)*)cc3C(=O)[O-])c3ccc(N(C)C)cc3[o+]c2c1; Ahx = NCCCCCC(=O)O) | PTK2 892-1052 L994E (Homo sapiens, UniProt Q05397) | fluorescence polarisation | peptide |  | Kd | 82300 nM |
| S100A4, QSY 35 on amines (Homo sapiens, UniProt P26447) | SRXN1, Alexa 546 label (Homo sapiens, UniProt Q9BYN0) | FRET |  | apparent, with Ca2+, together with: Ca2+ | Kd | 60.9 nM |
| Palmitoyl-VVVAAAEEE-NH2 (peptide; palmitoyl tail; Palmitoyl = CCCCCCCCCCCCCCCC(=O)*) | PDGFB homodimer (UniProt P01127) | BLI | peptide |  | Kd | 461 nM |
| TREM2 fragment (Homo sapiens) | amyloid beta 40 fibrils (UniProt P05067) | co-sedimentation |  | apparent | Kd | 2300 ± 400 nM |
| SGRGK(Ac)GGKGL (histone H4 residues 1-10; acetylated K5) | ATAD2 bromodomain 981-1108 C1101A, Cys1057-Cys1079 disulfide (Homo sapiens, UniProt Q6PL18) | ITC | peptide | pH 7.0, 5 °C, NaCl 150 mM | Kd | 210000 nM |
| B1 (MYH7 839-968) | MYH7/MYL3 sS1 1-808 (Homo sapiens) | MST |  | pH 7.5, KCl 100 mM, Hill fit, together with: ADP 500 µM | Kd | 45000 ± 10000 nM |
| B2 (metQ mature N229A) | metN/metI E166Q/N295A (Escherichia coli) | fluorescence polarisation | DDM micelles | NaCl 150 mM, substrate-free partner, ATP-bound state, together with: ATP 5 mM, EDTA 10 mM | Kd | 300 nM |
| B3 (rpn10) | rpn12 1-250 K29A/Q76A, Oregon Green label (Schizosaccharomyces pombe, UniProt P50524) | fluorescence polarization |  | 0-370 µM, 20 min, pH 7.4, 25 °C, NaCl 150 mM | Kd | 61100 ± 9300 nM |
| B4 (UGT1A9) | CCCOC(=O)c1ccc(O)cc1 | steady-state kinetics |  | pH 7.4, 37 °C | Vmax | 0.00456 µmol/min/mg |
| B5 (VCL head domain 1) | CTNNA3 M1-M3 259-667 (UniProt Q65CL1) | magnetic tweezers force-jump |  |  | Kd | 3 nM |
| RRRRRRC / CGSFPPWVKKTEV (peptide; cyclic, disulfide-linked poly-Arg) | DLG4 309-422 (Homo sapiens, UniProt P78352) | SPR | peptide |  | Kd | 41.3 nM |
| SYK N-terminal SH2 domain | CLEC1B fragment, pY7 (Homo sapiens) | SPR |  | equilibrium Kd | Kd | 10500 nM |
| B6 (Fermt2 F0 1-97) | Pxn, Atto520 label (Mus musculus, UniProt Q8VI36-2) | ITC |  |  | Kd | 1920 ± 628 nM |
| B7 (Reln 1948-2662) | LRP8 ectodomain, lacking LA4-6 (Homo sapiens) | SPR |  | pH 5.5, steady-state affinity | Kd | 410 nM |
| TKDELTKIMDRASKIEQIQKLAKYAISALNYEDLPTAKDELTKALDLLNSI (VTA1 280-330 (Saccharomyces cerevisiae, UniProt Q06263); sequence looked up) | VPS4 299-415 H359D (Saccharomyces cerevisiae, UniProt P52917) | SPR |  | pH 7.0, NaCl 150 mM, equilibrium fit | Kd | 280000 ± 12000 nM |
| TKGPAPNPPPILKV (TRPV4 121-134 (Gallus gallus, UniProt A0A1D5PXA5); sequence looked up) | PACSIN2 388-448 (Gallus gallus, UniProt O13154) | NMR titration | peptide | pH 7, NaCl 100 mM | Kd | 12700 ± 2400 nM |
| B8 | LILRB4 extracellular domain 22-259 (Homo sapiens, UniProt Q8NHJ6) | SPR |  | 37 °C, equilibrium fit | Kd | > 200000 nM |
| B9 (BNR1 1288-1375) | AIP5 1110-1233, Alexa 488 label (Saccharomyces cerevisiae, UniProt P43597) | fluorescence polarisation |  | 30 nM, pH 7.4, NaCl 150 mM, Hill fit | Kd | 237 ± 43 nM |
| QEECPSDSEEDEG (FURIN residues 768-780 (Homo sapiens)) | AP1M1 158-423 (Homo sapiens, UniProt Q9BXS5) | ITC | peptide | pH 7.4, 12 °C, NaCl 200 mM | Kd | > 300000 nM |
| B10 (HSPB8) | BAG3 (Homo sapiens, UniProt O95817) | ITC |  | 25 °C, relative values | Kd | 1200 nM |
| ART[Lys(Me2)]QTARKSTG (histone H3 2-13 (UniProt P68431); K4me2; Lys(Me2) = CN(C)CCCC[C@H](N)C(=O)O; sequence looked up) | BIRC5 1-142 (Homo sapiens, UniProt O15392) | ITC | peptide | pH 7.2 | Kd | 12000 ± 800 nM |

A few entries again:
| Molecule | tested on | assay | system | setting | measurement | result |
| --- | --- | --- | --- | --- | --- | --- |
| B3 (rpn10) | rpn12 1-250 K29A/Q76A, Oregon Green label (Schizosaccharomyces pombe, UniProt P50524) | fluorescence polarization |  | 0-370 µM, 20 min, pH 7.4, 25 °C, NaCl 150 mM | Kd | 61100 ± 9300 nM |
| B4 (UGT1A9) | CCCOC(=O)c1ccc(O)cc1 | steady-state kinetics |  | pH 7.4, 37 °C | Vmax | 0.00456 µmol/min/mg |
